Experimental data pooled from the literature.
Lines come from different studies, so protocols differ. Numbers after ± are the reported error.
MAPK14: Mitogen-activated protein kinase 14 (MAPK14, Homo sapiens, UniProt Q16539)
UniProt Q16539, sequence (whole entry, looked up): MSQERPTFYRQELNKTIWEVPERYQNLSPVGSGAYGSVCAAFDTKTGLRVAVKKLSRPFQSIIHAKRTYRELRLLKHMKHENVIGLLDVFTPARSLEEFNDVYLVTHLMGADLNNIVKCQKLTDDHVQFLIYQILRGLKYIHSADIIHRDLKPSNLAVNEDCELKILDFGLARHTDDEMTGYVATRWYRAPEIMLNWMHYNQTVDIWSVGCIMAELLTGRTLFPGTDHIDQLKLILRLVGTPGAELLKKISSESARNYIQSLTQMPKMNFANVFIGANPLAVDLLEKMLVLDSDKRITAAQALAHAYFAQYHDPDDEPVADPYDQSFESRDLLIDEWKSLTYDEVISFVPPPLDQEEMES
Seed linoleate 13S-lipoxygenase-1: Seed linoleate 13S-lipoxygenase-1 (Glycine max, UniProt P08170)
UniProt P08170, sequence (whole entry, looked up): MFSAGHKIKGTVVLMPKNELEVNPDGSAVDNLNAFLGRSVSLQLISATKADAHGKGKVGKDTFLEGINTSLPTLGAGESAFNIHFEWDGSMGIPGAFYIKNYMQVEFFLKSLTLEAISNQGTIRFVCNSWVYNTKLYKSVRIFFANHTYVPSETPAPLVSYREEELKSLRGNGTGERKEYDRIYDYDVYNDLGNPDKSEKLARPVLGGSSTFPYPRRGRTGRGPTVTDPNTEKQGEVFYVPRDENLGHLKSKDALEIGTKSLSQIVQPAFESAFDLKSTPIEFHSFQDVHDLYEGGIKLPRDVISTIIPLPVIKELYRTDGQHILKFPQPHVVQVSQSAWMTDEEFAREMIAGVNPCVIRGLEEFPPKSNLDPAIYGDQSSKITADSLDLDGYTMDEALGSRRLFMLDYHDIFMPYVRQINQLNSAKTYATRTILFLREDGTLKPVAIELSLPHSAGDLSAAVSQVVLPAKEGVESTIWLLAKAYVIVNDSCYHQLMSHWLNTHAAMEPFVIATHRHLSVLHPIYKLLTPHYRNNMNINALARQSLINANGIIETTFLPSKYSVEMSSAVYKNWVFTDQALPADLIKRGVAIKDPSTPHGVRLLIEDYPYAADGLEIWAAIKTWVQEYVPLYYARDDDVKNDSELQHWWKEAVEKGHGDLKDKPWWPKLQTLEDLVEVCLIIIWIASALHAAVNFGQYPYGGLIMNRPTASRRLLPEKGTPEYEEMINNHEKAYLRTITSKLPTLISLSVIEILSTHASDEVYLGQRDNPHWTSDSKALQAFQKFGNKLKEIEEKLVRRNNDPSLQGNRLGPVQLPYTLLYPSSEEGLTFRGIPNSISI
JAK2: Tyrosine-protein kinase JAK2 (JAK2, Homo sapiens, UniProt O60674)
UniProt O60674, sequence (whole entry, looked up): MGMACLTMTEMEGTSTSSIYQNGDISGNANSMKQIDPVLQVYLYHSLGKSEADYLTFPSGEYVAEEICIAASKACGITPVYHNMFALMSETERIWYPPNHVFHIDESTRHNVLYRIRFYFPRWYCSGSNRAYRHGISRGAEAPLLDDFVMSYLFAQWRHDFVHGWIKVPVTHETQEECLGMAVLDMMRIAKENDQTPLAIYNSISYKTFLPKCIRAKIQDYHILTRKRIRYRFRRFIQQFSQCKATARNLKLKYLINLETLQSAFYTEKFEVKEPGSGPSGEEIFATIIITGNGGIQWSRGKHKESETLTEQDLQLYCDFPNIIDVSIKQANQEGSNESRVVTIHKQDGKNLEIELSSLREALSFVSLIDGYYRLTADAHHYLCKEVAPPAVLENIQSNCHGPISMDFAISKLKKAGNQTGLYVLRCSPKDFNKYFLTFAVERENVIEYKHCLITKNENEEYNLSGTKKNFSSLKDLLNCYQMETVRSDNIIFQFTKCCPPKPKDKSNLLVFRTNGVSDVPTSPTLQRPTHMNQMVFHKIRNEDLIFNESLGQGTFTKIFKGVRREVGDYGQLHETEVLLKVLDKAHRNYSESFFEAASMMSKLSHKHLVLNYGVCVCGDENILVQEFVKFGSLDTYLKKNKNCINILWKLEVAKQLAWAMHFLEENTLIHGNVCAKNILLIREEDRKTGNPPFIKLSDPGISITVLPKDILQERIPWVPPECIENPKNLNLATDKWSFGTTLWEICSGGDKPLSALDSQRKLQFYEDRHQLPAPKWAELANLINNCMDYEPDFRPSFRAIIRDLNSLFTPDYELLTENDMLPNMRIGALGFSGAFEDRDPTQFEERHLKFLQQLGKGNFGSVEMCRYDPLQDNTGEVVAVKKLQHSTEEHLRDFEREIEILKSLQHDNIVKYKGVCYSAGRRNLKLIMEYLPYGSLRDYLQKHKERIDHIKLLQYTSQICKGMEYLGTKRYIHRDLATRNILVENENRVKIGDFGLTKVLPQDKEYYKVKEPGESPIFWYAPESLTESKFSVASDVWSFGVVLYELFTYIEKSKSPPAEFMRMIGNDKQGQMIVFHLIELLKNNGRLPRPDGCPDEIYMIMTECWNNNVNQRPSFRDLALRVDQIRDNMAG
UniProt Q920B6, sequence (whole entry, looked up): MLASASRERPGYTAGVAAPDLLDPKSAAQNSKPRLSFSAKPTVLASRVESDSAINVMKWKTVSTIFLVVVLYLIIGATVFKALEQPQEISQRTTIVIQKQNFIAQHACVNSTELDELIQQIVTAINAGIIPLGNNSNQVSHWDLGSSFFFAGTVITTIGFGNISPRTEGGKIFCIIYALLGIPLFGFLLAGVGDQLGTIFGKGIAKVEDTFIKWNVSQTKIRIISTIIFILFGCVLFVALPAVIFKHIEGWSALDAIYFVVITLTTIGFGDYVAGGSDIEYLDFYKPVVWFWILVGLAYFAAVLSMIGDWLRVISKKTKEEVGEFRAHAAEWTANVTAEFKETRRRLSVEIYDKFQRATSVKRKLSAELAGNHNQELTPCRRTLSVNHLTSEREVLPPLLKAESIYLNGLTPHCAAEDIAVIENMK
UniProt P22411, sequence (whole entry, looked up): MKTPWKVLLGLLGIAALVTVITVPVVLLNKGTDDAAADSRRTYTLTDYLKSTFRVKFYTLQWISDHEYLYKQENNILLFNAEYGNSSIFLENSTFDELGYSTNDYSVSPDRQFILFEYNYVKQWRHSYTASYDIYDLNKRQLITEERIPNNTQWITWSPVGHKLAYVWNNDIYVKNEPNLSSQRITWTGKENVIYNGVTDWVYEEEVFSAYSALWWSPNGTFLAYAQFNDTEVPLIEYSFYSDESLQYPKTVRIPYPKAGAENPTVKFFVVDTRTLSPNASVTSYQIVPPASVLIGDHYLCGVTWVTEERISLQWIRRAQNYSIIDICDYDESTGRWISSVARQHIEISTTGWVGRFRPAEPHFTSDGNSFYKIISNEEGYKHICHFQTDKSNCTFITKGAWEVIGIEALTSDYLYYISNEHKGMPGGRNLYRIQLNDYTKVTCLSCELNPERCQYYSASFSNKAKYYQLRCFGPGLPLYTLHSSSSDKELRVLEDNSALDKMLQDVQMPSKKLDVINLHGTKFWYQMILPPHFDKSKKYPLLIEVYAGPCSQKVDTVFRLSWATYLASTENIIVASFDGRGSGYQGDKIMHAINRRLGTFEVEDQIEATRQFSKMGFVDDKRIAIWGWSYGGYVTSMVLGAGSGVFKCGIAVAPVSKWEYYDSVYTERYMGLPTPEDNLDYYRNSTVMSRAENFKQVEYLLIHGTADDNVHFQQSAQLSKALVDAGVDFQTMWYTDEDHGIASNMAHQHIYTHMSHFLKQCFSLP
UniProt Q9NUW8, sequence (whole entry, looked up): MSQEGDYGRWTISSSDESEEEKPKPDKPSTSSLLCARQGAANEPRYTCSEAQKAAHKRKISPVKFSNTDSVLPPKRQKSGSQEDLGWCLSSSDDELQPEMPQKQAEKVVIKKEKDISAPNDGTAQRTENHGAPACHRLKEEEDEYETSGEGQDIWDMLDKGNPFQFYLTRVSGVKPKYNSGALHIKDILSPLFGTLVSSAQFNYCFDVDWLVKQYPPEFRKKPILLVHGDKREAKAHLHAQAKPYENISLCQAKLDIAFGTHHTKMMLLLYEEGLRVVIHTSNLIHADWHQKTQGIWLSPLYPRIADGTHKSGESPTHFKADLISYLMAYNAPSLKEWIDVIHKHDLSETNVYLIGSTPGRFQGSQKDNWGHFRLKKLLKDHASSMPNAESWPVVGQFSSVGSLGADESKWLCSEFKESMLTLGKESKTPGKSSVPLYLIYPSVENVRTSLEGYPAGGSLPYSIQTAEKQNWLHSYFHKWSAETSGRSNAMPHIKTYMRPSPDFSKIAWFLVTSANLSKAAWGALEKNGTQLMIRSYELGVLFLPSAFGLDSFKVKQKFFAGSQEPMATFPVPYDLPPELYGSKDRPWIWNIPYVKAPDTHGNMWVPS
UniProt Q9H2H9, sequence (whole entry, looked up): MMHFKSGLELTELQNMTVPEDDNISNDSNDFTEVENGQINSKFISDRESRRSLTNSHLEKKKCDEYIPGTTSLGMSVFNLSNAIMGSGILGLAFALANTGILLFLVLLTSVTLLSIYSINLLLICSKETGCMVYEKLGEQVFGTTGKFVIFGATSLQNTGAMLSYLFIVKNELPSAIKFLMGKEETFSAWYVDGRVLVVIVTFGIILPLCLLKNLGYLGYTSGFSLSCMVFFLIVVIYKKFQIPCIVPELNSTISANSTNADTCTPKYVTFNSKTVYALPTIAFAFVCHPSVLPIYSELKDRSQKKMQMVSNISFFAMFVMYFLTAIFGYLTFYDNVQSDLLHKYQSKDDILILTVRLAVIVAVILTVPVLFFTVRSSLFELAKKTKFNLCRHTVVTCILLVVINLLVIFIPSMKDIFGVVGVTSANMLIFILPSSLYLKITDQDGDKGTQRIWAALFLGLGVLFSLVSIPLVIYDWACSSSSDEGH
UniProt O08967, sequence (whole entry, looked up): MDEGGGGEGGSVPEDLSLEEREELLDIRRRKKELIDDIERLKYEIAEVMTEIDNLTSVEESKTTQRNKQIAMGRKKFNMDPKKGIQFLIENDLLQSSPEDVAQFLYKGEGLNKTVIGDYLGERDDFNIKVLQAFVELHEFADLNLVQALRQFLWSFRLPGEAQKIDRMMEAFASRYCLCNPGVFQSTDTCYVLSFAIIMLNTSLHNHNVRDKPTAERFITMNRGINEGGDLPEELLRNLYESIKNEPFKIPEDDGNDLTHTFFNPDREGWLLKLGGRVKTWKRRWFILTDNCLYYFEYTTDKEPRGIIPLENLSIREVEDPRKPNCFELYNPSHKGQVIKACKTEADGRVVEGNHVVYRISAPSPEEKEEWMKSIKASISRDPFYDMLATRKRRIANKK

Compound = Cc1ccc(NC(=O)C2C(=O)C(c3ccccc3)c3ccc4c(c32)C(=O)c2ccccc2C4=O)cc1 (stereo not shown); target = mushroom tyrosinase; assay = enzyme activity, inhibitor, spectrophotometry; conditions = 25 µg/mL, together with: L-DOPA substrate; inhibition = 62.12 ± 0.12%
Compound = Cn1c(=O)c2cc(C(=O)NCCCN3CCCCCC3)sc2c2ccccc21; target = Geranylgeranyl pyrophosphate synthase (GGPS1, Homo sapiens, UniProt O95749); assay = enzyme activity; conditions = up to 200 µM; inhibition = no inhibition
Compound = Cc1cncc(Oc2ccc(C=NOCc3ccc4nc(-c5ccccc5)c(Nc5ccc(C(=O)O)cc5)n4c3)cc2)n1; target = Tyrosyl-DNA phosphodiesterase 1 (TDP1, Homo sapiens, UniProt Q9NUW8); assay = enzyme activity, inhibitor; conditions = 100 µM; inhibition = 111%
Compound = O=C(NCc1ccncc1)c1cc(F)cc(F)c1; target = MAPK14; assay = primary fragment screen; conditions = 0.25 mM, together with: ATP 10 µM; inhibition = 33.2%
Compound = CC(C)[C@@H]1NC(=O)[C@@H](NC(=O)[C@H](Cc2ccc(O)cc2)NC(=O)[C@@H]2CCCN2C(=O)[C@H](C)N)CSSC[C@@H](C(=O)O)NC(=O)[C@H](CO)NC(=O)[C@H](Cc2c[nH]c3ccccc23)NC(=O)[C@H](CO)NC(=O)CNC(=O)[C@H](CCCNC(=N)N)NC(=O)[C@H](Cc2ccc(O)cc2)NC1=O; target = Ephrin type-A receptor 4 (EPHA4, Homo sapiens, UniProt P54764); assay = protein-protein interaction, inhibitor, ELISA; conditions = 10 µM; inhibition = ~80%
Compound = O=C(c1ccco1)N1CCN(Cc2ccc3c(c2)OCO3)CC1; target = MAPK14; assay = primary fragment screen; conditions = 0.25 mM, together with: ATP 10 µM; inhibition = 42.1%
Compound = Cc1cc(O)c2c(c1)C(=O)c1cc3oc(=O)cc(C)c3c(O)c1C2=O; target = mushroom tyrosinase; assay = enzyme activity; conditions = 50 µg/mL, together with: L-DOPA; inhibition = 30.1 ± 0.45%
Compound = O=C1c2ccccc2C(=O)c2c1ccc1c2C(C(=O)Nc2ccccc2Cl)C(=O)C1c1ccccc1 (stereo not shown); target = mushroom tyrosinase; assay = enzyme activity, inhibitor, spectrophotometry; conditions = 25 µg/mL, together with: L-DOPA substrate; inhibition = 43.23 ± 0.15%
Compound = COc1cc(OC)c2c(c1)C(=O)c1cc3oc(=O)cc(-c4ccccc4)c3c(O)c1C2=O; target = mushroom tyrosinase; assay = enzyme activity; conditions = 100 µg/mL, together with: L-DOPA; inhibition = 62.6 ± 0.65%
Compound = COc1cc(Oc2c(O)cc(C)c(Br)c2OC)c(C(=O)O)c(C)c1O; target = Gag-Pol polyprotein, reverse transcriptase (gag-pol, Human immunodeficiency virus 1, UniProt P03366); assay = enzyme activity, inhibitor, PicoGreen fluorescence; conditions = 10 µM; inhibition = 4.4 ± 0.3%
Compound = OC[C@H]1[C@@H](O)[C@@H](O)CN1Cc1ccc(I)cc1; target = Alpha-mannosidase (Canavalia ensiformis, UniProt C0HJB3); assay = enzyme activity, inhibitor, absorbance; conditions = 2 mM; inhibition = 9%
Compound = CCn1c(SC(C)C(=O)NC2CCCCC2)nnc1C1CCN(C(=O)Nc2ccccc2)CC1 (stereo not shown); target = Seed linoleate 13S-lipoxygenase-1; assay = enzyme activity, inhibitor; conditions = 250 µM; inhibition = 87.6%
Compound = Cc1cc(=O)oc2cc3c(c(C)c12)C(=O)c1c(O)cccc1C3=O; target = mushroom tyrosinase; assay = enzyme activity; conditions = 100 µg/mL, together with: L-DOPA; inhibition = 39.76 ± 0.12%
Compound = O=C(c1ccco1)N1CCN(Cc2ccc(Br)cc2)CC1; target = MAPK14; assay = primary fragment screen; conditions = 0.25 mM, together with: ATP 10 µM; inhibition = 69.6%
Compound = COc1cc(C(=O)NC2CCC(N3CCN(CC4CCC5(CCCC5)C4)CC3)CC2)c(F)cc1Nc1ncc2c(n1)N(C1CCCC1(F)F)CC(F)(F)C(=O)N2C (stereo not shown); target = JAK2; assay = cell-free assay, TR-FRET; conditions = 10 µM; inhibition = 7.69%
Compound = CCn1c(C)c(C(=O)c2ccccc2)c(=O)n1-c1cccc(S(N)(=O)=O)c1; target = JAK2; assay = enzyme activity, inhibitor, ADP detection; conditions = 1 µM; inhibition = 79.3%
Compound = CCn1c(SC(C)C(=O)Nc2ccccc2)nnc1C1CCN(C(=O)Nc2ccccc2)CC1 (stereo not shown); target = Seed linoleate 13S-lipoxygenase-1; assay = enzyme activity, inhibitor; conditions = 250 µM; inhibition = 84.7%
Compound = O=C1c2ccccc2C(=O)c2c1ccc1c2C(C(=O)Nc2ccccc2)C(=O)C1c1ccccc1 (stereo not shown); target = mushroom tyrosinase; assay = enzyme activity, inhibitor, spectrophotometry; conditions = 50 µg/mL, together with: L-DOPA substrate; inhibition = 16.2 ± 0.23%
Compound = COc1cc(/C=C/C(=O)CC(C)=O)ccc1O; target = Thioredoxin reductase 1, cytoplasmic (Txnrd1, Rattus norvegicus, UniProt O89049); assay = enzyme activity, inhibitor, absorbance; conditions = 100 µM, 30 min, pH 7.4; inhibition = 85 to 95%
Compound = O=C1C[C@H](c2ccc(O)c(O)c2)c2c(cc(O)c3c2O[C@H](c2ccc(O)c(O)c2)[C@H](O)C3)O1; target = Dipeptidyl peptidase 4 (DPP4, Sus scrofa, UniProt P22411); assay = enzyme activity, inhibitor, absorbance; conditions = 50 µg/mL; inhibition = 41.3%
Compound = COc1cccc(OC)c1C(=O)N1CCN(Cc2ccccn2)CC1; target = MAPK14; assay = primary fragment screen; conditions = 1 mM, together with: ATP 10 µM; inhibition = 89.1%
Compound = COc1c2c(cc3oc(=O)cc(-c4ccccc4)c13)C(=O)c1cc(C)cc(O)c1C2=O; target = mushroom tyrosinase; assay = enzyme activity; conditions = 100 µg/mL, together with: L-DOPA; inhibition = 46.99 ± 0.21%
Compound = CC(=O)Nc1cc(COc2c(Cl)cc(CC(N)C(=O)O)cc2Cl)c2oc(-c3ccccc3)nc2c1 (stereo not shown); target = SLC38A1 (Homo sapiens, UniProt Q9H2H9); assay = L-alanine uptake; test system = Xenopus oocytes; conditions = 1 and 10 µM, 30 min, together with: L-[14C]alanine 50 µM; inhibition = no inhibition
Compound = COc1c2c(cc3oc(=O)cc(-c4ccc(Cl)cc4)c13)C(=O)c1cc(C)cc(O)c1C2=O; target = mushroom tyrosinase; assay = enzyme activity; conditions = 50 µg/mL, together with: L-DOPA; inhibition = 73.6 ± 0.45%
Compound = CCCCC[N+](CCCCC)(CCCCC)CCCCC; target = Potassium channel subfamily K member 2 (Kcnk2, Rattus norvegicus, UniProt Q920B6); assay = ion current, blocker, inside-out patch clamp; test system = Xenopus oocytes; conditions = concentration not given, together with: Rb+ as permeant ion; scale = baseline: K+ as permeant ion; inhibition = no effect
Compound = C[C@@H](N)C1CCN(S(=O)(=O)c2cccc3cnccc23)CC1; target = Serine/threonine-protein kinase RIO1 (RIOK1, Homo sapiens, UniProt Q9BRS2); assay = cell-free assay, competition with immobilised ligand; conditions = 10 µM; inhibition = > 95%
Compound = CC[C@H](C)[C@H](NC(=O)[C@H](CCCNC(=N)N)NC(=O)[C@H](CCCCN)NC(=O)[C@@H]1CCCN1C(=O)[C@@H]1CCCN1CCCN(CC[C@H](N)C(=O)O)C[C@H]1O[C@@H](n2cnc3c(N)ncnc32)[C@H](O)[C@@H]1O)C(=O)N[C@@H](C)C(N)=O; target = Adenosylhomocysteinase (AHCY, Homo sapiens, UniProt P23526); assay = enzyme activity, inhibitor; conditions = 10 µM; inhibition = < 40%
Compound = O=[N+]([O-])c1ccc(Cn2cc(Cn3cc(CO)nn3)nn2)cc1; target = Cytohesin-3, PH domain (Cyth3, Mus musculus, UniProt O08967); assay = PI(3,4,5)P3 binding, competitive SPR; conditions = 5 µM, PH domain 500 nM; inhibition = 52 ± 4%
Compound = COc1c2c(cc3oc(=O)cc(-c4ccc(O)cc4)c13)C(=O)c1cc(C)cc(O)c1C2=O; target = mushroom tyrosinase; assay = enzyme activity; conditions = 50 µg/mL, together with: L-DOPA; inhibition = 44.58 ± 0.25%
Compound = Cc1ccc2c(c1)C(O)(CC(=O)c1ccc3c(c1)OCO3)C(=O)N2 (stereo not shown); target = Uncharacterized protein (Trypanosoma brucei brucei, UniProt Q386Q8); assay = enzyme activity, inhibitor, coupled colorimetric; test system = Trypanosoma brucei; conditions = 100 µM; inhibition = 27%
Compound = COc1c2c(cc3oc(=O)cc(C)c13)C(=O)c1cc(C)cc(O)c1C2=O; target = mushroom tyrosinase; assay = enzyme activity; conditions = 50 µg/mL, together with: L-DOPA; inhibition = 31.33 ± 0.17%
Compound = Nc1n[nH]c(Nc2ccc(Cl)cc2)n1; target = MAPK14; assay = primary fragment screen; conditions = 0.25 mM, together with: ATP 10 µM; inhibition = -0.8%
Compound = Cc1cc(O)cc2c1C(=O)c1c(cc3oc(=O)cc(-c4ccc(O)cc4)c3c1O)C2=O; target = mushroom tyrosinase; assay = enzyme activity; conditions = 25 µg/mL, together with: L-DOPA; inhibition = 41 ± 0.45%
Compound = O=C1c2ccccc2C(=O)c2c1ccc1c2C(C(=O)NCc2ccccc2)C(=O)C1c1ccccc1 (stereo not shown); target = mushroom tyrosinase; assay = enzyme activity, inhibitor, spectrophotometry; conditions = 50 µg/mL, together with: L-DOPA substrate; inhibition = 42 ± 0.46%

Repeated from above:
Compound = O=C(NCc1ccncc1)c1cc(F)cc(F)c1; target = MAPK14; assay = primary fragment screen; conditions = 0.25 mM, together with: ATP 10 µM; inhibition = 33.2%
Compound = CC(C)[C@@H]1NC(=O)[C@@H](NC(=O)[C@H](Cc2ccc(O)cc2)NC(=O)[C@@H]2CCCN2C(=O)[C@H](C)N)CSSC[C@@H](C(=O)O)NC(=O)[C@H](CO)NC(=O)[C@H](Cc2c[nH]c3ccccc23)NC(=O)[C@H](CO)NC(=O)CNC(=O)[C@H](CCCNC(=N)N)NC(=O)[C@H](Cc2ccc(O)cc2)NC1=O; target = Ephrin type-A receptor 4 (EPHA4, Homo sapiens, UniProt P54764); assay = protein-protein interaction, inhibitor, ELISA; conditions = 10 µM; inhibition = ~80%
Compound = O=C(c1ccco1)N1CCN(Cc2ccc3c(c2)OCO3)CC1; target = MAPK14; assay = primary fragment screen; conditions = 0.25 mM, together with: ATP 10 µM; inhibition = 42.1%
